Measurements from different studies.
A part holds a random share of what one study measured.

Series 1
Target: Interferon regulatory factor 7, full length, phosphomimetic (IRF7, Homo sapiens, UniProt Q92985, residues 1-503, S471D/S472D/S475D/S476D/S477D/S483D/S484D/S487D)
Sequence of UniProt Q92985 (whole entry, unmodified, looked up): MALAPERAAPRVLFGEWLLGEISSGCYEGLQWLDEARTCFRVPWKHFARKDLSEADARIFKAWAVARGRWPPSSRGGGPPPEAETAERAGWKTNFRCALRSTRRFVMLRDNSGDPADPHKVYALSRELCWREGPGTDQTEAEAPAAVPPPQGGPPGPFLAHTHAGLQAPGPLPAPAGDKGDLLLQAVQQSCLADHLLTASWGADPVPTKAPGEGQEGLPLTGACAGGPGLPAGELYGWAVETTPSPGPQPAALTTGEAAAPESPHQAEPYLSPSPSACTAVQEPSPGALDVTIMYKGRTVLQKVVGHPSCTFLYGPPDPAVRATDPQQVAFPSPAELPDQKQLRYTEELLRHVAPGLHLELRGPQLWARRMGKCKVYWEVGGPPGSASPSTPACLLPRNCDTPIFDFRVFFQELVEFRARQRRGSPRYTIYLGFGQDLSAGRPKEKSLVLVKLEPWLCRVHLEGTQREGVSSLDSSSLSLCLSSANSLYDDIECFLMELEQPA
Method: protein-binding microarray
Molecule type: double-stranded DNA, one strand shown
Matrix: in vitro
Concentration: 2200 nM top
Notes: 60-bp whole probe
With: salmon DNA 0.4 mg/ml
Relative to: random background probes
Direction: higher = stronger binding
All sequences stand within: GCCTAGCAC … GTCTTGATTCGCTTGACGCTGCTG
`TCTGTTTCTGATATGGTATGGTGCTAG` — result for “fitted relative affinity”: 3.36 z-score.
Under “fitted relative affinity”, `GACGGTCTCGGTCTCGGGCCGTGCTAG` is recorded as -0.306 z-score.
Under “fitted relative affinity”, `TTAGGTCTCGGGTTTCGGTTAGTGCTA` is recorded as 3.61 z-score.
Under “fitted relative affinity”, `TTAGAACTGAGACAGGATTAGTGCTAG` is recorded as -0.788 z-score.
`TTAGGACTGCTAATGCTTTAGTGCTAG` — result for “fitted relative affinity”: 0.155 z-score.
For `TCAAGTTTGACATCTTCAACTGTGCTA`, “fitted relative affinity” read 0.192 z-score.
Under “fitted relative affinity”, `GACGATCTCAGTAACGAGACGTGCTAG` is recorded as 0.0217 z-score.
For `TTAGGACTGGGTTTCCGTTAGTGCTAG`, “fitted relative affinity” read 0.781 z-score.
`GCTTCTCCTTGGAATAGATCGTGCTAG` — result for “fitted relative affinity”: 1.48 z-score.
`TCACCTCTGCTCCTCTTACTGTGCTAG` — result for “fitted relative affinity”: 2.31 z-score.
`GACGATTTCAGACAGGAGACGTGCTAG`: “fitted relative affinity” 0.0982 z-score.
For `TTAGGTTTCGGACTGGTTTAGTGCTAG`, “fitted relative affinity” read 3.23 z-score.
For `TTAGGTATCGGGTCTGGGTTAGTGCTA`, “fitted relative affinity” read 0.264 z-score.
Under “fitted relative affinity”, `GACGATTTCGGCTTTCGAGACGTGCTA` is recorded as 3.88 z-score.
For `GACGATATCAGTTTCGAGCCGTGCTAG`, “fitted relative affinity” read 2.83 z-score.
Under “fitted relative affinity”, `GACGGTCTCCTAATGCTGACGTGCTAG` is recorded as 0.459 z-score.
`TCCACTTGTCTTTTCACTTTGTGCTAG`: “fitted relative affinity” 3.99 z-score.
Under “fitted relative affinity”, `GACGCTCTCGGTCTCGGGACGTGCTAG` is recorded as 0.441 z-score.

Series 2
Target: Histone acetyltransferase KAT6A, winged helix 2, GST fusion (KAT6A, Homo sapiens, UniProt Q92794, residues 85-181)
Method: protein binding microarray
Molecule type: double-stranded DNA, one strand shown
Matrix: in vitro
Concentration: not given
Notes: 8-mer, flanks averaged, mean of 2 arrays, mostly near background
Relative to: not given
Direction: higher = stronger binding
Construct (chain): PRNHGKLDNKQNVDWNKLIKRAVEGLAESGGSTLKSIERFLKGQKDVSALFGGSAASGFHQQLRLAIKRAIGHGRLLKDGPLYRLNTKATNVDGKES
`AGAGAAAA` gave an E-score of 0.132.
`CGACTGCG` gave an E-score of 0.143.
With `TGATCACA` the E-score was -0.00604.
The E-score of `GGTCCCGA` is reported as 0.109.
`AGGGTTAG` has an E-score of -0.164.
With `GCTCATAC` the E-score was -0.0205.
`GTCCACAC` has an E-score of 0.155.
The E-score of `AGTAGCCC` is reported as -0.0431.
The E-score of `CTGTAACA` is reported as -0.0639.
`GAGGCAAC` has an E-score of -0.108.
With `CCGTCTAC` the E-score was 0.00786.
The E-score of `ACAAGAGC` is reported as -0.0812.
`GTTCCGGA` gave an E-score of 0.0522.
The E-score of `CTTTTTTA` is reported as -0.0575.
The E-score of `CTTCCAAC` is reported as -0.0732.
The E-score of `GGAATTCC` is reported as -0.0859.
`GTCACTGA` has an E-score of 0.00524.
`AAAGCACT` has an E-score of 0.0932.
The E-score of `AGAGCACA` is reported as 0.176.
`ATGCTATC` gave an E-score of 0.00428.
With `CTCTGAAA` the E-score was 0.00073.
With `AACCTGGC` the E-score was 0.106.
The E-score of `CAATAGCG` is reported as -0.184.
`ATAGTCCG` has an E-score of -0.0827.
`GGCACCGA` has an E-score of 0.0824.

Series 3
Target: RING finger protein unkempt homolog, zinc fingers 1-6, GST-SBP tag (UNK, Homo sapiens, UniProt Q9C0B0, residues 30-357)
Sequence of UniProt Q9C0B0 (30-357, looked up): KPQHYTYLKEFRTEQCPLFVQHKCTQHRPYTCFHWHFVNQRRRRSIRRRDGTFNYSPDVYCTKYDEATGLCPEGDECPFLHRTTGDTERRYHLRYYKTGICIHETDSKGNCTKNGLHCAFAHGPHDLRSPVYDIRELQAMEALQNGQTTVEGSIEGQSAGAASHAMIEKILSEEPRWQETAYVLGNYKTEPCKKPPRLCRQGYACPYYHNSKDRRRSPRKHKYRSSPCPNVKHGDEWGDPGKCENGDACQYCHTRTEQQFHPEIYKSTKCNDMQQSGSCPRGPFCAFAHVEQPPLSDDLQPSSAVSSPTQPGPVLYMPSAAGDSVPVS
Method: RNA Bind-n-Seq
Molecule type: RNA
Matrix: in vitro
Concentration: not given
Notes: RNA with constant flanks, ends assumed
Relative to: input RNA pool
Direction: higher = stronger binding
`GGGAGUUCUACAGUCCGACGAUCCUGUUUAUGGGAGACUAUGUGGACAGAGGAUAUUACUCUGUUGAAACAGUUACACUGCUUGCCGCUCUUAAGGUUCGUUACCGAGAGCGCAUCACCAUACUCCGAGGGAAUCACGAGAGCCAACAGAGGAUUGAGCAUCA` has a bound/input enrichment of 0.154 ratio.
`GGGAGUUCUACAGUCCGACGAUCAACGGCGCCCCAGCGUGUGCCCAGAAACUCUAUGCAGAACUGUGCCAGGGCAUCGUGGACACCGCCAUAUCCAGUGUCUUCCCACCCCCGGACACGGAGCAGGUGCCGCAGCAGCCGGCUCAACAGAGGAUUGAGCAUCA` gave a bound/input enrichment of 0.119 ratio.
For `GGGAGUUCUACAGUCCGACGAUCAGUCAGCACAGCCGCGGCGGCUGCAGCAGCGAGAGUUCUAGGGUUGCCCUUAAUUGCUGCCGUAACCUGGGUCCGGGGCCUCGGUGGUGCUCCGAUGUCCCUCACCCACCCCUGAAGAUCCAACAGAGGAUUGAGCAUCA`, the bound/input enrichment was 0.132 ratio.
`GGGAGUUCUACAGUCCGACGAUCUUUGAAGAAGGUGAAGAAACAAUUACAGCCUUUGUAGAACCUUUUGUAAUUUUACUCAUAUCCGCCGCCAAUGCAAUUGUGGGUGUAUGGCAGGAAAGAAAUGCUGAAAAUGCCAUCGAACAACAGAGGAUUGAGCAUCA` gave a bound/input enrichment of 0.305 ratio.
With `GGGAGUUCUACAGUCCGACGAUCAUCACCCAGCUGAAUCUUAGCGGCUACAGAAAGAAUCUCCAGAAAUCAGAUCUCUCUACUUCCGUCCGAAGAUGCCCCAAUCUUGUCCAUCUAGACUUAAGUGAUAGUGUCAUGCUAAAGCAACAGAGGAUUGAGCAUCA` the bound/input enrichment was 0.217 ratio.
`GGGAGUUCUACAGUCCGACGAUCGAGCAAUUUGAGAGGUACCUGCAUGACGAGAGCGGCUUGAACAGGCGGCACAUCAUUGAUAACCGGGUGCAUUGUUGCUUUUACUUUAUUUCACCUUUUGGACAUGGACUUAAGCCCUUACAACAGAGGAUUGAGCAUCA` gave a bound/input enrichment of 0.186 ratio.
With `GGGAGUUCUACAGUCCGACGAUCCACUCCUCGAAGCAGGGUCACCUUUUAGGAAAGGUCCCCCACAGCUACCUCCAGUAGCUUCUCCGUUCGUGGUAGGCUUCAUGAGCCCCUCCCUGCUCUGUGCUGGGAUUUUGACUUCUGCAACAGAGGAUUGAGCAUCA` the bound/input enrichment was 0.21 ratio.
For `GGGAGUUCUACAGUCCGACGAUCGCGGAGAAGGACUCUCUGGACCCCUCCUUCACGCACGCCCUGCGCUUGGUGAACCGAGAAACCGAAAAGUUUCAAAAGGGAGAAGGCAAGGAGGAAGAGAAGUACAUUGACGUGGUGAUACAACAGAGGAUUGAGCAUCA`, the bound/input enrichment was 0.196 ratio.

Series 4
Target: RNA binding protein fox-1 homolog 2, RRM domain, GST-SBP tag (RBFOX2, Homo sapiens, UniProt O43251-10, residues 100-194)
Method: RNA Bind-n-Seq
Molecule type: RNA
Matrix: in vitro
Concentration: 365 nM
Notes: natural RNA segment, single round, ends assumed
Relative to: no-protein control
Direction: higher = stronger binding
Construct (chain): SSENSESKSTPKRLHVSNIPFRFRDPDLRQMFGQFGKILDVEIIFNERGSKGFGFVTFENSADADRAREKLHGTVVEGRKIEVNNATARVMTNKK
`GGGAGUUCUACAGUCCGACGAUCUCAUCAGCAAACCAGGCCAGCAUUCCACAGUCCUCUGCCUAAAGCUAAGCUUGGCCCUCACCAGCCAGCUUCACUGGAGCACCCAGAACACUUAGCUGGCCACCGCUUUAUGGAAUUCUCGGGUGCCAA` — result for “RBNS enrichment (R)”: 0.395.
`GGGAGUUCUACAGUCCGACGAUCUGUAUUGAGACAGACCCGACAAGUUCCAUGGCAUUAAAUCCAGUUCUGCGUUGGCUGGGGCAGAGCUCAGCACCCUCAGCCCUGCGGCCGUUCAUCUUGUGUGUUUGUGAUGGAAUUCUCGGGUGCCAA` — result for “RBNS enrichment (R)”: 0.492.
`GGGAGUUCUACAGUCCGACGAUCGUGGGACUGUGGAGACUCCGUUAAGACAGGAGCUUGUCAGAGGUGGACAACACGAAGAUUUCCUUUGCAUUUUCAGUAACCUUUGGAGCACACUUCUCUUAUUUCUCCUAUGGAAUUCUCGGGUGCCAA` — result for “RBNS enrichment (R)”: 0.76.
`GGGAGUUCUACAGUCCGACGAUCGCUCAAAUAGUCUAUACCUGAACUGCUAUAAGCAAGGUCGAUAGGGAAGUGGAUAGAUUGCUUCAGCAAAGUGAACUGUGAGAUCUCCAGGACAGAGGGAGAAAGAUCUGUGGAAUUCUCGGGUGCCAA`: “RBNS enrichment (R)” 2.1.
For `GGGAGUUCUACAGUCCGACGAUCUCUAGUUGUGUUGAAGCCAAGUGCAGUUGUGGAUGUUGCUGGGGUAAUAAAGGCAAGCGGGCUCCAGAGCCUCUCUGGUGGCGGCCAAGCCACACUCCCUUAACUGGGAAUGGAAUUCUCGGGUGCCAA`, “RBNS enrichment (R)” read 0.533.
Under “RBNS enrichment (R)”, `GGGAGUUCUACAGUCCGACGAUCCCUUACUGUGGCAGCAGUGUCACUGUCACUGAAAUAAACGUAAGCCCUACCUUCUUUCUUGUUUGAUUGAUUUAGACACACUGGUGCUCUUACAGGUGGAGAAUGAGUGUUGGAAUUCUCGGGUGCCAA` is recorded as 0.406.
`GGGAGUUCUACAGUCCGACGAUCUGCACUGAAAUAGAGCAGUAAGCUUGUGAUAAAGGCCAAUUCCAGGUAGCUCUUGAAGGUGAUAGCCAUCUACUUUCCAGUGGCUGCCAACCACAGGGAGUGCCAGUUAAUGGAAUUCUCGGGUGCCAA`: “RBNS enrichment (R)” 0.19.
Under “RBNS enrichment (R)”, `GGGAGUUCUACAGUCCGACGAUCUCAUACAGACUUUUAAUCCUCUACCACAUGCGAAUGCUGAACCCUCAGGAAGACCCACCUCUAUACCAUCUAGGAAGUGGGCACUGACUUUAAAGCGCUCCAGCCAACAGUGGAAUUCUCGGGUGCCAA` is recorded as 0.36.
`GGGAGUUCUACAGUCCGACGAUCUCCAGUUCUUGAUAGUUGGGGGCAGAGCCCCCACACUCCCUUAUACUUCCUGACUGUGCCAGGGCUUGGGUUCCCCACCACCUCCUCAAUGGAGCAAAGACUCCUGCUAGUGGAAUUCUCGGGUGCCAA` — result for “RBNS enrichment (R)”: 0.515.

For quick reference, copied from above (series 1):
`TCCACTTGTCTTTTCACTTTGTGCTAG`: “fitted relative affinity” 3.99 z-score.
Under “fitted relative affinity”, `GACGGTCTCCTAATGCTGACGTGCTAG` is recorded as 0.459 z-score.
For `TCAAGTTTGACATCTTCAACTGTGCTA`, “fitted relative affinity” read 0.192 z-score.
Under “fitted relative affinity”, `GACGATCTCAGTAACGAGACGTGCTAG` is recorded as 0.0217 z-score.
